Measurements gathered from unrelated publications.
Each line is one published result; not all experiments were run side by side. Several values in a cell are separate wells, animals, samples, runs or records. ± marks the error that the study gave.

CCC(=O)N(C)c1ccc(Cl)c(Cl)c1
plasma concentration (LC-MS/MS; mouse C57BL/6 female, plasma; oral, 10 mg/kg, 2 h): 26.2 ng/mL and 24.6 ng/mL

Cc1cc(C(=O)N[C@@H](CC(=O)NC(C)(C)C)C(=O)NCCNC(=O)c2cccc(-c3cc[nH]n3)c2)no1
plasma concentration (mouse, plasma; oral, 1 mg/kg): < 2 ng/mL

C=CC(=O)N1CCCC(n2c(=O)c3ncccc3n(Cc3ccc(Oc4ccccc4)cc3)c2=O)C1 (stereo not shown)
plasma concentration (BALB/c mouse, male, plasma; intraperitoneal, 200 mg/kg, 6 h): 135 ng/mL

C=CC(=O)N1CCC[C@@H](c2ccc(C(N)=O)c3[nH]ccc23)C1
plasma concentration (mouse, TMD8 tumour-bearing, plasma; 30 mg/kg twice daily, 8 h): 6.8 ng/mL

[2H]C([2H])(N)C([2H])([2H])NC(=O)c1cc(C2CC2)nc2c1cnn2C(C)C
plasma concentration (mouse BALB/c female, plasma; intraperitoneal, 50 mg/kg, 12 h): 89.3 ng/mL and 70.4 ng/mL and 51.5 ng/mL and 45.1 ng/mL

Cc1ccc(OCC(=O)N(Cc2cccs2)c2ccn[nH]2)cc1
plasma concentration (mouse, CD-1, male, plasma; oral, 30 mg/kg, 0.25 h): 382 nM

CC#CC(=O)N1CCC[C@H]1c1nc(-c2ccc(C(=O)Nc3ccccn3)cc2)c2c(N)nccn12
plasma concentration (mouse, TMD8 tumour-bearing, plasma; 30 mg/kg twice daily, 8 h): 16.1 ng/mL

Cc1ncsc1-c1ccc(CNC(=O)[C@@H]2C[C@@H](O)CN2C(=O)[C@@H](NC(=O)COCC(C)(COCCOCCOCCNC(=O)C[C@@H]2N=C(c3ccc(Cl)cc3)c3c(sc(C)c3C)-n3c(C)nnc32)COCCOCCOCCNC(=O)C[C@@H]2N=C(c3ccc(Cl)cc3)c3c(sc(C)c3C)-n3c(C)nnc32)C(C)(C)C)cc1
plasma concentration (C57BL/6 mouse, male, plasma; intravenous, 5 mg/kg, 5 min): 39400 ng/mL

CC(C)n1ncc2c(C(=O)NC[C@@H](C)N)cc(C3CC3)nc21
plasma concentration (mouse BALB/c female, plasma; intraperitoneal, 30 mg/kg, 4 h): 927 ng/mL

O=C1C2CC3CC1CC(C(=O)N1CCN(c4ccc([N+](=O)[O-])c5ncccc45)CC1)(C3)C2
plasma concentration (ICR mouse, male; oral, 5 mg/kg, 0.5 h): 16.4 ng/mL

O=C1CCC(N2Cc3cc(C(=O)O)c(F)cc3C2=O)C(=O)N1 (stereo not shown)
plasma concentration (CD-1 mouse, male; oral, 10 mg/kg parent drug, 1 h): 221 ± 115 ng/mL

Cc1nn(-c2nc3c(F)cc(F)cc3s2)c(O)c1C(c1ccc(C(F)(F)F)cc1)c1c(C)nn(-c2nc3c(F)cc(F)cc3s2)c1O
plasma concentration (ICR mouse; intraperitoneal, 10 mg/kg, 2.00 h): 4550 ng/mL and 4370 ng/mL and 2560 ng/mL

CC1(C)CC[C@@]2(CO)C(=C3C=C[C@@H]4[C@@]5(C)CC[C@H](O)[C@@](C)(CO)[C@@H]5CC[C@@]4(C)[C@]3(C)C[C@@H]2O)C1
plasma concentration (UHPLC-MS/MS; mouse, plasma; oral, 50 mg/kg of saikosaponin a, 2 h): 2.09 ng/mL
